Published values gathered from unrelated publications.
Every numbered part comes from another study and shows a few of its results, in no order.

Block 1
Target: Histone acetyltransferase KAT6A, winged helix 1, GST fusion (KAT6A, Homo sapiens, UniProt Q92794, residues 1-85)
Technique: protein binding microarray
Form: double-stranded DNA, one strand shown
Medium: in vitro
Concentration: not given
Setting: 8-mer, flanks averaged, mean of 2 arrays, mostly near background
Relative to: not given
Reading: higher = stronger binding
Residues (chain): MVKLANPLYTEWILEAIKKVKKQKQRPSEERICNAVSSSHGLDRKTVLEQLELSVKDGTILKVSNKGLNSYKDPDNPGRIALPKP
Sequence | E-score
ATAGGCAC | -0.148
GCACAAGA | -0.115
GTTGAACA | 0.0101
TACAAATA | -0.121
AAGGTAAT | -0.0259
AGTCTGGA | -0.149

Block 2
Target: Interferon regulatory factor 7, full length, phosphomimetic (IRF7, Homo sapiens, UniProt Q92985, residues 1-503, S471D/S472D/S475D/S476D/S477D/S483D/S484D/S487D)
Technique: protein-binding microarray
Form: double-stranded DNA, one strand shown
Medium: in vitro
Concentration: 2200 nM top
Setting: 60-bp whole probe
Added: salmon DNA 0.4 mg/ml
Relative to: random background probes
Reading: higher = stronger binding
All sequences stand within: GCCTAGCAC … GTGCTAGGTCTTGATTCGCTTGACGCTGCTG
Construct (chain): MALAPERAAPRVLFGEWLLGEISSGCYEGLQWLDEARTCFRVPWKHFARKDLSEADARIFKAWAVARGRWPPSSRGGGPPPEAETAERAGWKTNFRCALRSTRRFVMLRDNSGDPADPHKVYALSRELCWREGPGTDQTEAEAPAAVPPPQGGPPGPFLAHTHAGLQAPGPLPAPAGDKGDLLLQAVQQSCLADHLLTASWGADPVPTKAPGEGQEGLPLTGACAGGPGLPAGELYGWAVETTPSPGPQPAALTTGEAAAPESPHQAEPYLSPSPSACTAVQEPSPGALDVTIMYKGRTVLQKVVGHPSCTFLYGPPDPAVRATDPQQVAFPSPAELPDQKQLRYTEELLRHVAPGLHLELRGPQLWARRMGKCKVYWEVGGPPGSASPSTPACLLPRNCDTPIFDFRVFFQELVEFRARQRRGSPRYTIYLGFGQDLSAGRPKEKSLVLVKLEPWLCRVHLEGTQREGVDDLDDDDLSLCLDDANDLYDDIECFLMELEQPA
Sequence | fitted relative affinity
GACGGTCTCCTACTGCTGAT | 0.591 z-score
GACGGTTCCCTTATCCTGAC | 1.75 z-score
GACGGTTTCGGTGTCGGGAC | 4.31 z-score
AATGTATAACGCCATTAGCT | 0.219 z-score
AAACTTACCTCACTCGTTAA | 0.719 z-score
GACGGTTCCGGTTTCGTGAC | 4.47 z-score
GACGGTTTCGAACTGGGGAC | 3.02 z-score
GACGGTATCCGTATCCTGAC | 0.777 z-score

Block 3
Target: Phosphate system positive regulatory protein PHO4, full length, GST-tagged (PHO4, Saccharomyces cerevisiae, UniProt P07270, residues 1-312)
Technique: competition protein-binding microarray
Form: double-stranded DNA, one strand shown
Medium: in vitro
Concentration: 2 µM
Setting: whole 60-bp probe, lowest competitor level
Added: Cbf1 competitor, 0.05 µM
Reading: higher = stronger binding
All sequences stand within: … GTCTTGATTCGCTTGACGCTGCTG
Target sequence (chain): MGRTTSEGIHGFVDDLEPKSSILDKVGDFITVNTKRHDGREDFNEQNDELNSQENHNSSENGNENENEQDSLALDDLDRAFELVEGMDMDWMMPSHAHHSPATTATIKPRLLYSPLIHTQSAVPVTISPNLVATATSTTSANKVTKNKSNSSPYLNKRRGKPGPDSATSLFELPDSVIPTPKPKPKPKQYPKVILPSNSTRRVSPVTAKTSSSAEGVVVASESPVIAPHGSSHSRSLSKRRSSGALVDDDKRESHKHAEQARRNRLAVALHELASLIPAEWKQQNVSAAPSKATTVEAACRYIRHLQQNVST
Sequence | fluorescence intensity [a.u.]
CTTCTGTAAATTTGGCCTGTGGGTGGACGCGCCCCG | 4340
GTACGAAGCAGGCTGCACATGTGTGGGTTTACCTTC | 11200
TGCGCAACAACTTGCTACGTGGGTGTATGTCTAGAA | 7280
AAAGCGGTAATTTGTCACTAGACTTCACATATCTAT | 3500
GTCTTGTCTCATTGTCAGGTGGGTGTCCCCACTTCA | 5720
GGCAACCAAGTAAACTGCGTGGGTATCTTCAAGTCG | 7650
TAGCAACGGAGAAAGCACGCTTGTAGAACCAACCTT | 7610

Further values, each from its own experiment
Molecule | target | assay | test system | conditions | how to read | quantity | result
PhoQ, residues 284 288 289 292 302 303 SCCLKL | PhoP, residues 12 14 15 18 19 IQFRS (Escherichia coli, UniProt P23836) | Sort-seq, item: YFP reporter | E. coli | PhoQ-PhoP variant library, added: 10 µM Mg2+ | relative to: high Mg2+ state, higher = stronger signaling | fold induction | 3.68

Some of these lines once more (block 3):
Sequence | fluorescence intensity [a.u.]
TGCGCAACAACTTGCTACGTGGGTGTATGTCTAGAA | 7280
AAAGCGGTAATTTGTCACTAGACTTCACATATCTAT | 3500
